# Measurements gathered from unrelated publications.
# Lines come from different studies, so protocols differ. Values joined by “and” are separate records of one study, mostly repeats; a detail may differ. Numbers after ± are the reported error.
# PSMB5: Proteasome Macropain subunit MB1 (PSMB5, Homo sapiens, UniProt P28074)
# UniProt P28074, sequence (whole entry, looked up): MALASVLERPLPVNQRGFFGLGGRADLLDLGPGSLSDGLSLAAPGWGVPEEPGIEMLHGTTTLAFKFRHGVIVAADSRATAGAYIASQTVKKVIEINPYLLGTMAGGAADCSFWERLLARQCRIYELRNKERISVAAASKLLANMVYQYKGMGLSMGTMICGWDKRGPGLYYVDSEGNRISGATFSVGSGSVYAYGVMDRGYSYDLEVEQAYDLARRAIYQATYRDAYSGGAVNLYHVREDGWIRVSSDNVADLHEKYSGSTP
# Proteasome subunit beta type-9: Proteasome subunit beta type-9 (Homo sapiens, UniProt P28065)
# UniProt P28065, sequence (whole entry, looked up): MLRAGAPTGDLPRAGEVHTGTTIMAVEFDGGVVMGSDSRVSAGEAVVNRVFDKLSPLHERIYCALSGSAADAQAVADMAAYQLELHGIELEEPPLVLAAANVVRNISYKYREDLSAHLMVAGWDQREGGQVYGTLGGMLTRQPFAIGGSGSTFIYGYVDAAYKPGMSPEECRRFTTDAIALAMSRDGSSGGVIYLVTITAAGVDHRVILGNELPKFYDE
# Methionyl-tRNA synthetase, putative: Methionyl-tRNA synthetase, putative (Trypanosoma brucei brucei, UniProt Q38C91)
# SIRT1: NAD-dependent protein deacetylase sirtuin-1 (SIRT1, Homo sapiens, UniProt Q96EB6)
# UniProt Q96EB6, sequence (whole entry, looked up): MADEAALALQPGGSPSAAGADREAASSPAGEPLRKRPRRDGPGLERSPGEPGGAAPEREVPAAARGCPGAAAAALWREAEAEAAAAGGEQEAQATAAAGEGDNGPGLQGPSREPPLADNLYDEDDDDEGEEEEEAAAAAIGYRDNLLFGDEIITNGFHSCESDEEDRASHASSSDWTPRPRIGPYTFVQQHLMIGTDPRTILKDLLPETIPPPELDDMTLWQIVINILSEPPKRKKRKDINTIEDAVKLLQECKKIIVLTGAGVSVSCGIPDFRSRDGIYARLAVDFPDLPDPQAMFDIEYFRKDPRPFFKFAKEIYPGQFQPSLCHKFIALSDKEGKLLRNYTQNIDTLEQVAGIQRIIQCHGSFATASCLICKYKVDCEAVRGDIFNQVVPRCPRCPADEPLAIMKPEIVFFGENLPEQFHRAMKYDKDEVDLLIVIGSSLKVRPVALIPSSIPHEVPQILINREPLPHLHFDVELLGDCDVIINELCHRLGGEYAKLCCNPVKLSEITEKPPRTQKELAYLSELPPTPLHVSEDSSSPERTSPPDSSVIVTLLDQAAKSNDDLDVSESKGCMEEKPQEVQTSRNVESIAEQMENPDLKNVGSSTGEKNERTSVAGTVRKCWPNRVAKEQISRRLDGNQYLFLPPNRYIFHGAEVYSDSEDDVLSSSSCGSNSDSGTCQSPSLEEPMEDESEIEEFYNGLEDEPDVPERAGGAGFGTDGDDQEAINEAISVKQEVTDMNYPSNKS
# BTK: Tyrosine-protein kinase BTK (BTK, Homo sapiens, UniProt Q06187)
# UniProt Q06187, sequence (whole entry, looked up): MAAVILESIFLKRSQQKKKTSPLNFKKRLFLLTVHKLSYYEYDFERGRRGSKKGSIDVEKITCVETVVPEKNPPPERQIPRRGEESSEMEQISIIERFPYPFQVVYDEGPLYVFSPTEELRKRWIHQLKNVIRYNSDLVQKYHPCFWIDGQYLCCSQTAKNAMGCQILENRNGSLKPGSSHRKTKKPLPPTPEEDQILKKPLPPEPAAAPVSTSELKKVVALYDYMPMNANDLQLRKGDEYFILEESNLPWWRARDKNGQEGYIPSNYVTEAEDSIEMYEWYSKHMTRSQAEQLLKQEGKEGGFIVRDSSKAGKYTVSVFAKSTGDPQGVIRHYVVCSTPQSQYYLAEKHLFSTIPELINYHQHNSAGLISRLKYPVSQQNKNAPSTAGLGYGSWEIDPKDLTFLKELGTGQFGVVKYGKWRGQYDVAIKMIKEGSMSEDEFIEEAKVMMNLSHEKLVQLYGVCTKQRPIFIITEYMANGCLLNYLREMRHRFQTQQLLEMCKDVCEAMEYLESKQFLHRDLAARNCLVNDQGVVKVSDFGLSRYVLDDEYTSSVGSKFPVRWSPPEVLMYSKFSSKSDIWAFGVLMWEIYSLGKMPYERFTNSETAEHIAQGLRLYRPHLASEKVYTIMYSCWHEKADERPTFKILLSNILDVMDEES
# CELF1 del215-384: CUGBP Elav-like family member 1 (CELF1, Homo sapiens, UniProt Q92879, del215-384)
# UniProt Q92879, sequence (whole entry, unmodified, looked up): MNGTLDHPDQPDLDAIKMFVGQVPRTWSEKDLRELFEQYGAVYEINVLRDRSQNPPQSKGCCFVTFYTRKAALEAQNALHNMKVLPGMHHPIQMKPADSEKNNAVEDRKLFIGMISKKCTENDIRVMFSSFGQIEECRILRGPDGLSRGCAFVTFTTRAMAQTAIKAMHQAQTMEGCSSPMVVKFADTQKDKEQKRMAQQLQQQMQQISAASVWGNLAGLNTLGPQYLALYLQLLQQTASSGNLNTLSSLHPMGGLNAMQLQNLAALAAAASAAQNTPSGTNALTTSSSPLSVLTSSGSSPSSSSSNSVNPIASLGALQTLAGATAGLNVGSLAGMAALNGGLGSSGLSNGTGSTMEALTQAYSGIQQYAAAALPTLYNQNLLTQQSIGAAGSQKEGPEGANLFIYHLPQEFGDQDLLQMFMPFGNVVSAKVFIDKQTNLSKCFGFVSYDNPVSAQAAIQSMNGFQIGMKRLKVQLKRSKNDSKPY
# Thymocyte selection-associated high mobility group box protein TOX with KAT7: Thymocyte selection-associated high mobility group box protein TOX, with KAT7 (Homo sapiens, UniProt O94900)
# UniProt O94900, sequence (whole entry, looked up): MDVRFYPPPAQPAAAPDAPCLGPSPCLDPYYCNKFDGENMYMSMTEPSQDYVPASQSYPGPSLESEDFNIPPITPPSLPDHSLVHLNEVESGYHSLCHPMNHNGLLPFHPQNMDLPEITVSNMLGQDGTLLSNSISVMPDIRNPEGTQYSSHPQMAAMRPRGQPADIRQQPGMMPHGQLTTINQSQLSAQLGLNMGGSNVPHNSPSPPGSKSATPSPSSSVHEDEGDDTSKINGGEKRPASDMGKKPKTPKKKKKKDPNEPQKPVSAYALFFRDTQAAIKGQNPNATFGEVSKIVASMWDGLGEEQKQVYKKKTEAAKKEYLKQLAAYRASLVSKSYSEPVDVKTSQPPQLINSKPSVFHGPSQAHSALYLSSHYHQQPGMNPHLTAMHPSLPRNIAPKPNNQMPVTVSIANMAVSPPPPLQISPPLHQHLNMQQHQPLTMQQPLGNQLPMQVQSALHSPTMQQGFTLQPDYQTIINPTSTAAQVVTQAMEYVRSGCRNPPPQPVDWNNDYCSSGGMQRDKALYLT
# UniProt P41968, sequence (whole entry, looked up): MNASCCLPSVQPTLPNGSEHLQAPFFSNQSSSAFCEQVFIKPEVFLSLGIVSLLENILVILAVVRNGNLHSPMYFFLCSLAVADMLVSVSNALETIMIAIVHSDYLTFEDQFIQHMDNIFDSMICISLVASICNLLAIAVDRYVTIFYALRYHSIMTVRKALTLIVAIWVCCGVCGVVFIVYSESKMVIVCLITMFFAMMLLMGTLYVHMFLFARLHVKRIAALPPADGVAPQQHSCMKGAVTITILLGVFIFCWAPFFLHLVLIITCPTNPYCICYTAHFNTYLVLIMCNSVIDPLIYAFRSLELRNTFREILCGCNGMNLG
# UniProt P18031, sequence (whole entry, looked up): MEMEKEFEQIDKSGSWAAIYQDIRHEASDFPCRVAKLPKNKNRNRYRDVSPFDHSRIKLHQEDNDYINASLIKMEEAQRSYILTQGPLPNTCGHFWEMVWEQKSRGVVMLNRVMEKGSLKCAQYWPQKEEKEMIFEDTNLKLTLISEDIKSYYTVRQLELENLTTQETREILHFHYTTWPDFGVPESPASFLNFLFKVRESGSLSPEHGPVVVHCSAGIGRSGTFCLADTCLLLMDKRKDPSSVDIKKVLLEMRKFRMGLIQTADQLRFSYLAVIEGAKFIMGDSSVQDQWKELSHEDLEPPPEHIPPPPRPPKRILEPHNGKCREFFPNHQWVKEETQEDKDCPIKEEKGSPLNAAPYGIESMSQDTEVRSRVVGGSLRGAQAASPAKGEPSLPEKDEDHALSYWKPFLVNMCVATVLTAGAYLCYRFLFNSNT
# UniProt P61073, sequence (whole entry, looked up): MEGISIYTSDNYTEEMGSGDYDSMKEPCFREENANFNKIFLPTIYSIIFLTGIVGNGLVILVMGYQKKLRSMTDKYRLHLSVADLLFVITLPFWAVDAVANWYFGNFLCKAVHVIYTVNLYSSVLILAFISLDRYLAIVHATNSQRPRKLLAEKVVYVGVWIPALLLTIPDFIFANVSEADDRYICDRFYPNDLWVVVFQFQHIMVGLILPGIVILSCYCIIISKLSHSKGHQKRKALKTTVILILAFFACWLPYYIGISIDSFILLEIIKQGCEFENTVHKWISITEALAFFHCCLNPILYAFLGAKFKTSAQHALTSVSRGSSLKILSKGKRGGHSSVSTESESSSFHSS
# UniProt Q9UPE1, sequence (whole entry, looked up): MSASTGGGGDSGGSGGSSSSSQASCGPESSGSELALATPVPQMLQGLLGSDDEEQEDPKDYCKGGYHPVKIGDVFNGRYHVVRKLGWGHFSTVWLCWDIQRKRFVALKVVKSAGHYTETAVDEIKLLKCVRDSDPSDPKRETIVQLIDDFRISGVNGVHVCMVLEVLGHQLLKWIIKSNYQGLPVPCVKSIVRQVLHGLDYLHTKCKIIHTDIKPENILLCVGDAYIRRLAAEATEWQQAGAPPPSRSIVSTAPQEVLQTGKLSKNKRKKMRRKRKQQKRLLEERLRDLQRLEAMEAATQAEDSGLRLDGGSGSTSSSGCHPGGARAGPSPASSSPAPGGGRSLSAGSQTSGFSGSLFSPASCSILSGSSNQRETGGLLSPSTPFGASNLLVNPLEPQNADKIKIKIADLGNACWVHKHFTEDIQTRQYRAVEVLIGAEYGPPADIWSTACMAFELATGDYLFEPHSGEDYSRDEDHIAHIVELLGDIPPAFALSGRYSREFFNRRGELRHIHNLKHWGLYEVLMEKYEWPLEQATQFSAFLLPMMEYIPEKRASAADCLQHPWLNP
# UniProt P35030, sequence (whole entry, unmodified, looked up): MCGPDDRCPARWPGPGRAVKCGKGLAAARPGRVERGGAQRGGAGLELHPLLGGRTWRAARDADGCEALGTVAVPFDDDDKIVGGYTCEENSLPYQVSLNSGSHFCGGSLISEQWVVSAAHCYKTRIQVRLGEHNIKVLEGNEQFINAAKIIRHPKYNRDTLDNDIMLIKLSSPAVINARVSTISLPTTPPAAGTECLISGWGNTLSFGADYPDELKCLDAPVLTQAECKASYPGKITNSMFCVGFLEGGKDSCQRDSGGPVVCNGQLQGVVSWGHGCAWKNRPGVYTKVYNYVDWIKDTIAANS
Compound,target or system,assay,test system,setting,how to read,endpoint,value
CC(C)C[C@H](NC(=O)[C@H](Cc1ccc(CN)cc1)NC(=O)[C@H](Cc1ccccc1)N=[N+]=[N-])C(=O)N[C@@H](CC1CCCC2CCCCC21)C(=O)[C@@]1(C)CO1 (some centres unmarked),PSMB5,competitive ABPP,Raji cell lysate,,,IC50,> 10 µM
OB(O)c1sccc1/C=N/OCc1ccccc1,"Prothrombin (F2, Homo sapiens, UniProt P00734)","enzyme activity, inhibitor",,,,IC50,> 100 µM
CC(=O)N[C@@H](CCCNC(=N)N)C(=O)N[C@H]1CSSC[C@@H](C(N)=O)NC(=O)[C@H](Cc2c[nH]c3ccccc23)NC(=O)[C@H](CCCNC(=N)N)NC(=O)[C@@H](Cc2ccc3ccccc3c2)NC(=O)[C@H](Cc2c[nH]cn2)NC(=O)[C@@H](C)NC1=O,"Melanocortin receptor 3 (MC3R, Homo sapiens, UniProt P41968)","antagonist, split-luciferase cAMP sensor",,"12 min, added: 30 nM α-MSH (EC90)",,IC50,0.0213 µM and 0.0223 µM
CC(C)C[C@H](NC(=O)[C@H](Cc1ccc(CN)cc1)NC(=O)[C@H](Cc1ccccc1)N=[N+]=[N-])C(=O)N[C@@H](CC1CCC(C)CC1)C(=O)[C@@]1(C)CO1 (some centres unmarked),Proteasome subunit beta type-9,competitive ABPP,Raji cell lysate,,,IC50,0.133 µM
Fc1ccc2[nH]c(NCCCNCc3cc(Cl)cc(Cl)c3)nc2c1,"Methionyl-tRNA synthetase, putative","enzyme activity, inhibitor",,,,IC50,< 0.01 µM
CCN(CC)CC#CCNc1ccnc2cc(Cl)ccc12,Salmonella typhimurium,mini-Ames test,TA1535,"62.5 µg/well, with rat liver S9",,revertants per well,3
Cc1ncsc1-c1ccc(C(C)NC(=O)C2CC(O)CN2C(=O)C(NC(=O)CCCCCCCCCCN2CCCC(Nc3ncc(Cl)c(Nc4ccccc4S(=O)(=O)C(C)C)n3)C2)C(C)(C)C)cc1 (centres unmarked),22Rv1,"RNA-seq, measured: ZNF223 mRNA",,concentration not given,reference: DMSO,log2 fold change,-2.47
CNC(=S)NCCCC[C@H](NS(=O)(=O)c1ccc(C(=O)NCc2cn(CCCNc3ccc([N+](=O)[O-])c4nonc34)nn2)cc1)C(=O)N[C@@H](CCCNC(=N)N)C(=O)N[C@@H](CC1CCCCC1)C(N)=O,SIRT1,"enzyme activity, inhibitor, fluorescence",,,,IC50,0.11 µM
Cc1cc(NC2CCN(C)CC2)ccc1-c1cc2c(N3CCC[C@H](C(=O)NCc4ccc(OC(F)(F)F)cc4)C3)ncnc2[nH]1,BTK,"enzyme activity, inhibitor, mobility shift",,,,IC50,1.43 µM
CC[C@H](C)[C@H](N)C(=O)NS(=O)(=O)CC(=O)N[C@]1(C(=O)O)[C@@H]2CN(C)C=C(C(N)=O)[C@@H]2C[C@@H]1O,"Carbonic anhydrase 9 (CA9, Homo sapiens, UniProt Q16790)","enzyme activity, inhibitor, absorbance",,pH 7.5,,IC50,0.073 µM
O=C1C(Cl)=C(NCCN2CCOCC2)C(=O)c2ncccc21,"Histone-lysine N-methyltransferase EHMT2 (EHMT2, Homo sapiens, UniProt Q96KQ7)","enzyme activity, inhibitor",,,,IC50,6.5 µM
COC1CN([C@H]2CC[C@H]([C@@]3(C)Oc4c(Cl)cc(C(=O)NCc5c(SC)cc(C)[nH]c5=O)c(C)c4O3)CC2)C1,,"RNA-seq, measured: BMPR1A mouse homolog","mouse, HT-1376 xenograft, whole blood",dose not given,reference: vehicle,log2 fold change,0.302
CCc1n[nH]c(=S)[nH]1,CELF1 del215-384,"CELF1-RNA binding, inhibitor, fluorescence polarization",,"20 nM CELF1, added: 10 nM RNA",,IC50,5 ± 0.67 µM
Nc1ncc2c(n1)-c1c([nH]c3ccc(C4=CCOCC4)cc13)CCC2,"Dual serine/threonine and tyrosine protein kinase (DSTYK, Homo sapiens, UniProt Q6XUX3)","enzyme activity, inhibitor, radiometric",,,,IC50,6.1 µM
Cc1nc(-c2c[nH]c(C(=O)Nc3ncccc3O)c2)cs1,"Trypsin-3 (Homo sapiens, UniProt P35030, W279Q)","enzyme activity, inhibitor",,mixed inhibition model,,Ki,239 ± 4.3 µM
N#Cc1c(N)nc2c(c1-c1ccc(CO)o1)CCc1cc(O)ccc1-2,Thymocyte selection-associated high mobility group box protein TOX with KAT7,"TOX-KAT7 binding, inhibitor, ELISA",,,no inhibition at 10 µM,IC50,> 10 µM
Nc1ncc(-c2cc(-c3cnn(CC(F)(F)F)c3)ncc2F)nc1C(=O)NC1CNCC(F)C1 (centres unmarked),PIP5K2B,KINOMEscan,,1 µM,reference: DMSO control,remaining binding,100%
C=CC(=O)Nc1ccc(F)c(-c2ncnc3[nH]cc(C(=O)OCC)c23)c1,BTK,"inhibitor, kinase",,added: ATP 1 mM,,IC50,0.363 µM
Fc1ccc2nc(NCCCN[C@@H]3CCOc4c(Cl)cc(Cl)cc43)[nH]c2n1,"Methionyl-tRNA synthetase, putative","enzyme activity, inhibitor",,,,IC50,< 0.01 µM
C[C@@H]1Cc2c([nH]c3ccccc23)[C@@H](c2c(F)cc(/C=C/C(=O)O)cc2F)N1C12CC(C1)C2,"Mineralocorticoid receptor (NR3C2, Homo sapiens, UniProt P08235)","MR receptor activity, antagonist, cell-based",,,,IC50,2.28 µM
CCCCCCCCCCCCCC(=S)NCCCC[C@H](NS(C)(=O)=O)C(=O)N[C@H](C)C(=O)N[C@@H](CCCNC(=N)N)C(N)=O,SIRT1,"enzyme activity, inhibitor, HPLC",,,,IC50,7.7 µM
CC1=CC(C)=[N+]2C1=Cc1ccc(CCC(=O)N3CCN(c4ccc(C(=O)N[C@H]5CC[C@H](Oc6ccc(C#N)c(Cl)c6)CC5)nn4)CC3)n1[B-]2(F)F,"Androgen receptor (Ar, Rattus norvegicus, UniProt P15207)","ligand displacement, FP",,,,IC50,0.013 µM
Cc1nn(-c2cccc(N)c2)c(=O)c2cnc(Nc3ccc(N4CCNCC4)cc3)nc12,"cAMP-dependent protein kinase catalytic subunit alpha (PRKACA, Homo sapiens, UniProt P17612)","enzyme activity, inhibitor",,,,IC50,> 10 µM
CC[C@H](C)[C@H](NC(=O)[C@H](CCCNC(=N)N)NC(=O)[C@@H]1CCCN1C(=O)[C@H](CCCCN)NC(=O)[C@@H](N)CC(C)C)C(=O)N[C@@H](CCCNC(=N)N)C(=O)O,"B1 bradykinin receptor (Rattus norvegicus, UniProt P97583)","ligand displacement, radioligand",,cell membranes,,IC50,4.3 µM
O=C(Nc1ccccc1)Nc1cccc(O)c1,"SRSF protein kinase 3 (SRPK3, Homo sapiens, UniProt Q9UPE1)","enzyme activity, inhibitor, FRET",,,,IC50,7.5 µM
Cc1c(COc2cc(OCc3cccc(C#N)c3)c(CN3CCCC[C@H]3C(=O)O)cc2Cl)cccc1-c1cccc(OCCCCCCC(=O)NO)c1,"Programmed cell death 1 ligand 1, with PD-1 (CD274, Homo sapiens, UniProt Q9NZQ7)","PD-1/PD-L1 binding, inhibitor, HTRF",,,,IC50,0.456 µM
CCCCCCC1CCC/C1=N\NC(N)=S (centres unmarked),"Scavenger receptor class B member 1 (Mus musculus, UniProt Q61009)","[3H]cholesteryl ester uptake from HDL, inhibitor",ldlA cells expressing mouse SR-BI,,,IC50,0.05 µM
C=CC(=O)Nc1cccc(Cn2ncc3cnc(Nc4cnn(CCOC)c4)nc32)c1,RIPK2 human,"binding, KINOMEscan",,100 nM,lower = stronger binding,percent of control,94%
O=C(O)c1ccc2c3n(nc2c1)[C@@H]1[C@H](CO3)N(CC2CC2)[C@@]2(C(=O)Nc3cc(Cl)ccc32)[C@H]1c1cccc(Cl)c1F,"Protein Mdm4, with p53 (MDM4, Homo sapiens, UniProt O15151, C17S)","MDMX-p53 binding, inhibitor, AlphaScreen",,,,IC50,9.12 µM
C[C@@H](O)[C@@H]1NC(=O)[C@H](CCCCN)NC(=O)[C@@H](Cc2ccc(NC(N)=O)cc2)NC(=O)[C@H](Cc2ccc(O)cc2)NC(=O)[C@H](NC(=O)[C@H](Cc2ccc(Cl)cc2)NC(=O)CN2CCN(CC(=O)O)CCN(CC(=O)O)CCN(CC(=O)O)CC2)CSSC[C@@H](C(=O)N[C@@H](Cc2ccc3ccccc3c2)C(N)=O)NC1=O,"Somatostatin receptor type 3 (SSTR3, Homo sapiens, UniProt P32745)","ligand displacement, radioligand",,,,IC50,> 1 µM
CCCCCCCCN(Cc1ccc(CNC(=O)OCCOC23CC4CC(C2)CC(C(N)C(=O)N2C(C#N)CC5CC52)(C4)C3)cc1)CC(O)C(O)C(O)C(O)CO (centres unmarked),"Dipeptidyl peptidase 9 (DPP9, Homo sapiens, UniProt Q86TI2)","enzyme activity, inhibitor",,with preincubation,,IC50,0.6 µM
CC(C)C[C@H](NC(=O)[C@@H](CCCCNC(=O)[C@@H](Cc1ccccc1)NC(=O)CCCCCNC(=O)CN1CCN(CC(=O)O)CCN(CC(=O)O)CCN(CC(=O)O)CC1)NC(=O)[C@H](Cc1ccc(O)cc1)NC(=O)[C@H](CO)NC(=O)[C@H](Cc1c[nH]c2ccccc12)NC(=O)[C@H](Cc1c[nH]cn1)NC(=O)[C@@H]1CCC(=O)N1)C(=O)N[C@@H](CCCNC(=N)N)C(=O)N1CCC[C@H]1C(=O)NCC(N)=O [indium-111 labelled],,,"athymic nude mouse, female, pituitary","intravenous, 0.037 MBq, 2 h",,tissue uptake,38.6 ± 7.96 %ID/g
C=C(NC(=O)c1csc(-c2nc3c(cc2O)-c2nc(cs2)C(=O)NC(C(C)O)C(=O)NC(=C(C)OC)c2nc(cs2)C(=O)NC2c4nc(cs4)C(=O)NC(COC(=O)c4c5c6c(cccc6n4O)COC(=O)C(OC4CC(C)(O)C(N(C)C)C(C)O4)C2OC5)c2nc-3cs2)n1)C(N)=O (centres unmarked),,,"cynomolgus monkey, plasma","intravenous, 1 mg/kg, single dose, infusion",,half-life,5.25 h
O=C(CCl)c1ccccc1Nc1cccc(C(F)(F)F)c1,"Transcriptional enhancer factor TEF-3 (TEAD4, Homo sapiens, UniProt Q15561)","thiol conjugation, inhibitor, CPM",,pH 6.5,,IC50,6.88 µM
CCN(CC)CC(=O)Nc1cccc(-n2cc(-c3ccc4ccc(-c5cn(-c6cccc(NC(=O)CN(CC)CC)c6)nn5)cc4c3)nn2)c1,"Receptor-type tyrosine-protein kinase FLT3 (FLT3, Homo sapiens, UniProt P36888, D835Y)","enzyme activity, inhibitor",,,,IC50,> 10 µM
Sc1nc[nH]n1,CELF1 del215-384,"CELF1-RNA binding, inhibitor, fluorescence polarization",,"20 nM CELF1, added: 10 nM RNA",,IC50,0.94 ± 0.08 µM
O=S(=O)(O)O/N=C(/CCc1ccccc1)S[C@@H]1O[C@H](CO)[C@@H](O)[C@H](O)[C@H]1O,"Tyrosine-protein phosphatase non-receptor type 1 (PTPN1, Homo sapiens, UniProt P18031)","enzyme activity, inhibitor, absorbance",,,,IC50,7.65 µM
CC1CCN(C(=O)c2cccc(NC(=O)Nc3ccc(Cl)cc3)c2)CC1,"Penicillin-binding protein 4 (Staphylococcus aureus, UniProt P72355)","Bocillin-FL binding, gel densitometry",,added: Bocillin-FL 40 µM,,IC50,1000 µM
COc1ccccc1N1CCN(c2nc(Nc3ccc(C)cc3C)c3nccnc3n2)CC1,"C-X-C chemokine receptor type 4 (CXCR4, Homo sapiens, UniProt P61073)","β-arrestin recruitment, antagonist",,,,IC50,32 µM
Fc1cc2nc(NCCCNCc3cc(Cl)cc(Cl)c3)[nH]c2cc1F,"Methionyl-tRNA synthetase, putative","enzyme activity, inhibitor",,,,IC50,< 0.01 µM
CC(C)C[C@H](NC(=O)c1ccccc1)C(=O)N[C@@H](CC(C)C)C(=O)N[C@H](/C=C/S(C)(=O)=O)Cc1ccc(CN)cc1,PSMB5,competitive ABPP,Raji cell lysate,,,IC50,> 10 µM
O=C(NC1CCC2(CCCC2)CC1)c1ccc(-c2ccccc2)cc1,"Transient receptor potential cation channel subfamily M member 8 (TRPM8, Homo sapiens, UniProt Q7Z2W7)","ion current, antagonist, patch clamp",,,,IC50,0.106 µM
CC(C)C[C@H](NC(=O)[C@H](Cc1ccc(CN)cc1)NC(=O)[C@H](Cc1ccccc1)N=[N+]=[N-])C(=O)N[C@H](C(=O)[C@@]1(C)CO1)C1CCCCC1,Proteasome subunit beta type-9,competitive ABPP,Raji cell lysate,,,IC50,> 10 µM
N#Cc1c(N)nc2c(c1-c1ccc[nH]1)Cc1cc(O)ccc1-2,Thymocyte selection-associated high mobility group box protein TOX with KAT7,"TOX-KAT7 binding, inhibitor, ELISA",,,no inhibition at 10 µM,IC50,> 10 µM

# For quick reference, copied from above:
Compound,target or system,assay,test system,setting,how to read,endpoint,value
CCN(CC)CC#CCNc1ccnc2cc(Cl)ccc12,Salmonella typhimurium,mini-Ames test,TA1535,"62.5 µg/well, with rat liver S9",,revertants per well,3
Cc1nn(-c2cccc(N)c2)c(=O)c2cnc(Nc3ccc(N4CCNCC4)cc3)nc12,"cAMP-dependent protein kinase catalytic subunit alpha (PRKACA, Homo sapiens, UniProt P17612)","enzyme activity, inhibitor",,,,IC50,> 10 µM
Nc1ncc(-c2cc(-c3cnn(CC(F)(F)F)c3)ncc2F)nc1C(=O)NC1CNCC(F)C1 (centres unmarked),PIP5K2B,KINOMEscan,,1 µM,reference: DMSO control,remaining binding,100%
CC1CCN(C(=O)c2cccc(NC(=O)Nc3ccc(Cl)cc3)c2)CC1,"Penicillin-binding protein 4 (Staphylococcus aureus, UniProt P72355)","Bocillin-FL binding, gel densitometry",,added: Bocillin-FL 40 µM,,IC50,1000 µM
